Published values pooled from the literature.
± marks the error that the study gave.
KPC-2: KPC-2 (Klebsiella pneumoniae, UniProt Q9F663)
MPO mature: MPO mature (Homo sapiens, UniProt P05164)
Sequence of UniProt P05164 (whole entry, looked up): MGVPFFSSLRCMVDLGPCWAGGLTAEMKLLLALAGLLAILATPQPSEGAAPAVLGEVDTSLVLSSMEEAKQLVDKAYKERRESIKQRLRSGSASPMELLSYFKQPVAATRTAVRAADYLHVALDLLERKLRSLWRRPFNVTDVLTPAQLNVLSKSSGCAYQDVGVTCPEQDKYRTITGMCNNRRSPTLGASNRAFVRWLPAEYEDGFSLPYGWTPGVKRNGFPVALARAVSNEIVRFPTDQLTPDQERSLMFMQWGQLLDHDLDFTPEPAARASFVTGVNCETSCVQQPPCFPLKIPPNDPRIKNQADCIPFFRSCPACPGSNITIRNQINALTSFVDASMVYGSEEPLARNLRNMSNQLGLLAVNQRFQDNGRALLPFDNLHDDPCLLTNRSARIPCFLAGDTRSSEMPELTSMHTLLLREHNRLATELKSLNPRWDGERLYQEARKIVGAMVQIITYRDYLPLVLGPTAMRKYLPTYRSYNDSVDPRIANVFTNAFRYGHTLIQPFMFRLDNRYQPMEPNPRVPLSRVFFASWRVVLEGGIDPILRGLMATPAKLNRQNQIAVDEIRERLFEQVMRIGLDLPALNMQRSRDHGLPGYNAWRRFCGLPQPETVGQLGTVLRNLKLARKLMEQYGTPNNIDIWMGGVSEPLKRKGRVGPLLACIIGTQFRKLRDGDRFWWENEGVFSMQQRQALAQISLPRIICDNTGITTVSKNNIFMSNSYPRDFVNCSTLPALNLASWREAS
PPIA: PPIA (Homo sapiens, UniProt P62937)
T1: EutB/EutC (Salmonella enterica serovar Typhimurium); chain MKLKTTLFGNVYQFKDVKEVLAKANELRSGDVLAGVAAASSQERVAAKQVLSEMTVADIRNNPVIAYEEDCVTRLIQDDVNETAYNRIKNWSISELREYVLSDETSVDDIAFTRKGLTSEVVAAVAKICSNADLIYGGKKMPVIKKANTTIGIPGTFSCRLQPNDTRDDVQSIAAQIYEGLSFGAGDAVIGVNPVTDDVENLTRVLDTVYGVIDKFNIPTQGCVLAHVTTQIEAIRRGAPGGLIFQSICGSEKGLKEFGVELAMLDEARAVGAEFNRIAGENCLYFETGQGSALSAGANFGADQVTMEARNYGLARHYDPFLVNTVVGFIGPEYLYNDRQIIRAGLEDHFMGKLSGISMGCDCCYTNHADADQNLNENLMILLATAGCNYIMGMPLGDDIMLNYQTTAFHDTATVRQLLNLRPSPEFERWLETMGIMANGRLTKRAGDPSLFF; chain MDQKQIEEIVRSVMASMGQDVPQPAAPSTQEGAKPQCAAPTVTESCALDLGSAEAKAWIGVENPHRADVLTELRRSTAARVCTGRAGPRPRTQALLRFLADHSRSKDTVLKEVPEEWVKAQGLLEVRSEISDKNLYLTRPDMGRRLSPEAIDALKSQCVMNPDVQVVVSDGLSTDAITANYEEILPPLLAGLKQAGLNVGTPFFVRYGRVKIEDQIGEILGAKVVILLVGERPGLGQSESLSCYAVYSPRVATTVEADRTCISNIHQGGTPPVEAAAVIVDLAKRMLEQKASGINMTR
B1: bbk32 108-205 (Borrelia burgdorferi, UniProt O50835); chain LKEQSETRKEKIQKQQDEYKGMTQGSLNSLSGESGELEEPIESNEIDLTIDSDLRPKSSLQGIAGSNSISYTDEIEEEDYDQYYLDEYDEEDEEEIRL
B2: nlpI mature soluble domain (Escherichia coli, UniProt P0AFB1); chain CSNTSWRKSEVLAVPLQPTLQQEVILARMEQILASRALTDDERAQLLYERGVLYDSLGLRALARNDFSQALAIRPDMPEVFNYLGIYLTQAGNFDAAYEAFDSVLELDPTYNYAHLNRGIALYYGGRDKLAQDDLLAFYQDDPNDPFRSLWLYLAEQKLDEKQAKEVLKQHFEKSDKEQWGWNIVEFYLGNISEQTLMERLKADATDNTSLAEHLSETNFYLGKYYLSLGDLDSATALFKLAVANNVHNFVEHRYALLELSLLGQDQDDLAESDQQ
B3: eutA (Salmonella enterica, UniProt Q9ZFV2); chain MNTRQLLSVGIDIGTTTTQVIFSRLELVNRAAVSQVPRYEFIKRDISWQSPVFFTPVDKQGGLKEVELKALILAQYQAAGIAPESVDSGAIIITGESAKTRNARPAVMALSQSLGDFVVASAGPHLESVIAGHGAGAQSLSEQRMCRVLNIDIGGGTSNYALFDAGKVSGTACLNVGGRLLETDAQGRVVYAHQPGQMIIDEVFGSGTDARALAAAQLGQVARRMADLIVEVITGALSPLAQSLMQTGLLPADITPEVITLSGGVGECYRNQPADPFCFSDIGPLLATALHEHPRLREMNVQFPAQTVRATVIGAGAHTLSLSGSTIWLEDVQLPLRNLPVAIPQDDADLVNAWRQALLQLDLDPQTDAYVLALPATLPVRYAALLTVINALTAFVARYPNPHPLLVVAEQDFGKALGMLLRPQLPQLPLAVIDEVVVRAGDYIDIGTPLFGGSVVPVTVKSLAFPS
Sequence of UniProt P07589 (whole entry, looked up): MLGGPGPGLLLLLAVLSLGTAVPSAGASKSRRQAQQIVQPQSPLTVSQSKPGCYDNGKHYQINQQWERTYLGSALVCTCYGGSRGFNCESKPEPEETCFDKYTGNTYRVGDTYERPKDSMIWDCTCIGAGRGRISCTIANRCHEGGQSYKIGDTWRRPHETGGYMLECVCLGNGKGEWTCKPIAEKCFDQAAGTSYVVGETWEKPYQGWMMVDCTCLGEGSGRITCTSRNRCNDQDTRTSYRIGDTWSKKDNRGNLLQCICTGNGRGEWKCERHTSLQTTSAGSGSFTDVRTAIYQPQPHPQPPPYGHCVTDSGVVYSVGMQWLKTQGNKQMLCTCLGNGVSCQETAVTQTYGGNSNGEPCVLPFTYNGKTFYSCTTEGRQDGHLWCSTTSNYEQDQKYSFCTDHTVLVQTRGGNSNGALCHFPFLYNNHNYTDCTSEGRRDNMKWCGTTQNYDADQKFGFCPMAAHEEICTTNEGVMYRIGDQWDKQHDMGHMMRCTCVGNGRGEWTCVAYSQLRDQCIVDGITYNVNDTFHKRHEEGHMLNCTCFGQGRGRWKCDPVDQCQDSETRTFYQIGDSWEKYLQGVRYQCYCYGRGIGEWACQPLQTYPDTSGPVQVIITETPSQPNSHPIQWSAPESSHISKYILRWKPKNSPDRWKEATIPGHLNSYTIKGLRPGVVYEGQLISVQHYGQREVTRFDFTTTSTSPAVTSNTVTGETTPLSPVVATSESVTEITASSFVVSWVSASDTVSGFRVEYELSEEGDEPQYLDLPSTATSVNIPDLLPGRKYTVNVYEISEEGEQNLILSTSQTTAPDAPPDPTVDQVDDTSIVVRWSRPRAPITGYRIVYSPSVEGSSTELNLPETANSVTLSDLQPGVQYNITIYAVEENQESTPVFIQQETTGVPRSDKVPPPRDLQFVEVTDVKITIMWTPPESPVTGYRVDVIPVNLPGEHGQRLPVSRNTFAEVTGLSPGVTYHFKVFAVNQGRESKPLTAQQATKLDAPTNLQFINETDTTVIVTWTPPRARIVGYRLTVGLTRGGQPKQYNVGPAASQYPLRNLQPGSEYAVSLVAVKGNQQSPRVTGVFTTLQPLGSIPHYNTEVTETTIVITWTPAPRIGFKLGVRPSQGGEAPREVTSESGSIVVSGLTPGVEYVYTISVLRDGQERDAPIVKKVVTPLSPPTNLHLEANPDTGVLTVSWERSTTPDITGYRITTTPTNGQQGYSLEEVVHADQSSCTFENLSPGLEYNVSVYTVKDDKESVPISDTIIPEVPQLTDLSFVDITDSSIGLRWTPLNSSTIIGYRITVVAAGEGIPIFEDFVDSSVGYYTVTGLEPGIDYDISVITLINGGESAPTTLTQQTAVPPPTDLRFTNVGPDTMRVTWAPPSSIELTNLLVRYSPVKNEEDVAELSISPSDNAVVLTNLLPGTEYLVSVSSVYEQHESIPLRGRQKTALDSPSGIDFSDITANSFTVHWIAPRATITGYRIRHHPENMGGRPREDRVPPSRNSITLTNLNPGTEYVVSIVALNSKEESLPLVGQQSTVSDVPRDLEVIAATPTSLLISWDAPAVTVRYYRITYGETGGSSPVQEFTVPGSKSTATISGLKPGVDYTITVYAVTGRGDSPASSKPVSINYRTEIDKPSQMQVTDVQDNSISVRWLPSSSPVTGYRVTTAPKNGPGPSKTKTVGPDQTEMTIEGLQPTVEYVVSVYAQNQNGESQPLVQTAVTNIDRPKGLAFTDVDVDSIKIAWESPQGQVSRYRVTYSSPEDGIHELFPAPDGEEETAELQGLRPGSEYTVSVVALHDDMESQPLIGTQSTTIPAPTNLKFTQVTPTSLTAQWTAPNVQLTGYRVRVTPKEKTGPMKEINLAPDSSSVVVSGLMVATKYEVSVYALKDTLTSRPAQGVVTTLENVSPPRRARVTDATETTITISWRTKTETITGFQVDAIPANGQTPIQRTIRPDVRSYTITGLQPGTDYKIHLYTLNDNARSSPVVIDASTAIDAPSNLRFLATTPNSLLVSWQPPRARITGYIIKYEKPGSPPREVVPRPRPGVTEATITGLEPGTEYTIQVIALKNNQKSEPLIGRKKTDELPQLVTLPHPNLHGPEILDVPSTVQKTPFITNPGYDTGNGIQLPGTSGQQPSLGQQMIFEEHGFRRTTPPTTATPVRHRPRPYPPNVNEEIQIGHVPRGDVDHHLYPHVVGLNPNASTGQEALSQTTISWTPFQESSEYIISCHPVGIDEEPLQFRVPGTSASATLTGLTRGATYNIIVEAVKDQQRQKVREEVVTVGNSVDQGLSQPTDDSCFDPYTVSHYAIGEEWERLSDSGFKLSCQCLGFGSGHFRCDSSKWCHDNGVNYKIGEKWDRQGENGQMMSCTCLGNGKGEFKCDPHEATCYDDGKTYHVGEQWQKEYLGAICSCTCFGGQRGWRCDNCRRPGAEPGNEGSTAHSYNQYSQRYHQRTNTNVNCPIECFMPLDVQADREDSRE
Sequence of UniProt P10591 (whole entry, looked up): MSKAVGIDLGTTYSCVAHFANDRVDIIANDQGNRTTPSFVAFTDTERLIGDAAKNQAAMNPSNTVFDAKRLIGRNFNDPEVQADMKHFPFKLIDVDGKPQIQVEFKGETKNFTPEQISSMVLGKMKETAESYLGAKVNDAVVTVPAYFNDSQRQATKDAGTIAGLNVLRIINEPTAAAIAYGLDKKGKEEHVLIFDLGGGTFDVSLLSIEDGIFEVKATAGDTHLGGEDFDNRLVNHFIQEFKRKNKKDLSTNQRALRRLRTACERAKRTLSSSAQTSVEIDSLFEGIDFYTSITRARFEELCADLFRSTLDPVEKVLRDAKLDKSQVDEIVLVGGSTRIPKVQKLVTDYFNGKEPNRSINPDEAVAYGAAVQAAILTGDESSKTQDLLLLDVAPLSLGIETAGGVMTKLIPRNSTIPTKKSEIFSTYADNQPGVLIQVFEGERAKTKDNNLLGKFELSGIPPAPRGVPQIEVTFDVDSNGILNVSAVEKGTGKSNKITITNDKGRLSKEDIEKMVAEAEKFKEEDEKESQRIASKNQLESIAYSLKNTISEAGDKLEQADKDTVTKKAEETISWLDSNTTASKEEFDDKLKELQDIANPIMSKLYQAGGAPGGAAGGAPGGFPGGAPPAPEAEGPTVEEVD

CAIAGGYFHGLALKGC (BLIP-II cyclic peptide (Streptomyces); C-terminal amide, cyclic, disulfide)  Kd (KPC-2; BLI; peptide): 310 ± 7 nM
B1 (bbk32 108-205)  koff (FN1 mature (Bos taurus, UniProt P07589); SPR; Langmuir model): 0.072 s⁻¹
SPIN mature L49A (Staphylococcus aureus)  IC50 (MPO mature; MPO peroxidase activity, inhibitor; L49A variant): 37.8 nM
gag CA CTD fragment F167Y/R185W (Rous sarcoma virus)  Kd (itself; ITC): 540000 ± 230000 nM
eutB (Salmonella enterica, UniProt P19264)  binding (eutA (Salmonella enterica, UniProt Q9ZFV2); cross-linking): binds
CDGYSSTGFYRGSAHLWFC (MBP/BLIP cyclic peptide (Streptomyces clavuligerus); cyclic)  koff (KPC-2; SPR; peptide): 0.0016 s⁻¹
insulin human  fold change (item: GLS mRNA; uninfected mouse, brain; i.p., dose not given; baseline: PBS): 1.1
CHLWFTDGVLC (BLIP cyclic peptide (Streptomyces clavuligerus); C-terminal amide, cyclic, disulfide)  koff (TEM-1 β-lactamase (UniProt P62593); BLI; peptide): 0.00015 s⁻¹
B2 (nlpI mature soluble domain)  binding (prc K477A (Escherichia coli, UniProt P23865); competition, SEC): binds
CWSEYYPAYC (BLIP cyclic peptide (Streptomyces clavuligerus); C-terminal amide, cyclic, disulfide)  Kd (KPC-2; BLI; peptide): 510 ± 8 nM
B3 (eutA)  binding (T1, EutB/EutC (Salmonella enterica serovar Typhimurium); SEC): binds
CDYYAYATFGFTSAAADAKVC (MBP/BLIP cyclic peptide (Streptomyces clavuligerus); cyclic)  koff (KPC-2; SPR; peptide): 0.00088 s⁻¹
NS5A mature (hepatitis C virus, UniProt Q9WMX2)  signal over control (PPIA; AlphaScreen; in vitro translated; baseline: control reactions RLU, higher = stronger interaction): 2.3 fold
SPIN mature Y75A (Staphylococcus aureus)  IC50 (MPO mature; MPO peroxidase activity, inhibitor; L49A variant): 9.6 nM
NS5A fragment (hepatitis C virus)  AlphaLISA signal (PPIA; AlphaScreen; higher = stronger interaction): > 13000 RLU
RRLEDAEYAARG (A7 peptide; fluorescein label)  binding (SSA1 (Saccharomyces cerevisiae, UniProt P10591); fluorescence polarisation; peptide; added: ADP): binds
CAGGIFHSLALKC (BLIP-II cyclic peptide (Streptomyces); C-terminal amide, cyclic, disulfide)  Kd (KPC-2; BLI; peptide): 240 ± 6 nM
SPIN mature E50A (Staphylococcus aureus)  IC50 (MPO mature; MPO peroxidase activity, inhibitor; L49A variant): 8.9 nM
NS5B mature (hepatitis C virus)  signal over pACT/pBIND (PPIA; luciferase, two-hybrid; CHO; baseline: pACT/pBIND RLU, higher = stronger interaction): 6 fold

Excerpt of the above:
insulin human  fold change (item: GLS mRNA; uninfected mouse, brain; i.p., dose not given; baseline: PBS): 1.1
CHLWFTDGVLC (BLIP cyclic peptide (Streptomyces clavuligerus); C-terminal amide, cyclic, disulfide)  koff (TEM-1 β-lactamase (UniProt P62593); BLI; peptide): 0.00015 s⁻¹
B2 (nlpI mature soluble domain)  binding (prc K477A (Escherichia coli, UniProt P23865); competition, SEC): binds
